Results collected from several papers.
Lines come from different studies, so protocols differ. Values joined by “and” are separate records of one study, mostly repeats; a detail may differ.
Cell line: NCI-H522

CCCN1CCN(c2ccc3[nH]c(-c4ccc5[nH]c(-c6cc(OC)c(OC)c(OC)c6)nc5c4)nc3c2)CC1  growth percent (SRB; 10 µM, 48 h): 41.1%
C#C[C@@]1(O)[C@@H](CO)O[C@@H](n2cc(I)c3c(N)ncnc32)[C@@H]1O  TGI (SRB; NCI-60 screen): 516 nM and 698 nM
CCCCc1n(Cc2ccc3ccccc3c2)c2ccccc2[n+]1Cc1ccc2ccccc2c1.[Br-]  TGI (NCI60 five-dose screen): 1350 nM
CCCCN1CCN(c2ccc3[nH]c(-c4ccc5[nH]c(-c6cc(OC)c(OC)c(OC)c6)nc5c4)nc3c2)CC1  growth percent (SRB; 10 µM, 48 h): 52.8%
CSc1nc(-c2ccc(Cl)cc2)c2c(NC(=O)c3ccccc3)nnc-2[nH]1  cell growth (SRB; 10 µM, NCI60 single-dose screen; relative to: untreated): 92.6%
COCCOCCOCc1n(Cc2ccc3ccccc3n2)c2ccccc2[n+]1Cc1ccc2ccccc2c1.[Br-]  TGI (NCI60 five-dose screen): 936 nM
O=c1ccn(Cc2cn(-c3cc4ccccc4oc3=O)nn2)c(=O)[nH]1  growth percentage (NCI60 single-dose screen; 10 µM): 95.9%
NNc1nc(-c2ccc(Cl)cc2)c2c(NC(=O)c3ccccc3)nnc-2[nH]1  cell growth (SRB; 10 µM, NCI60 single-dose screen; relative to: untreated): 95.3%
Cc1n(Cc2ccc3ccccc3c2)c2ccccc2[n+]1Cc1ccc2ccccc2c1.[Br-]  TGI (NCI60 five-dose screen): 2270 nM
O=C(Nc1nnc2[nH]c(=S)[nH]c(-c3ccc(Cl)cc3)c1-2)c1ccccc1  cell growth (SRB; 10 µM, NCI60 single-dose screen; relative to: untreated): 104%
O=c1ccn(Cc2cn(-c3c4ccccc4nc4ccccc34)nn2)c(=O)[nH]1  growth percentage (NCI60 single-dose screen; 10 µM): -57.4%
C#C[C@@]1(O)[C@@H](CO)O[C@@H](n2ccc3c(N)ncnc32)[C@@H]1O  TGI (SRB; NCI-60 screen): 3820 nM
CCCC(CCC)C(=O)OCc1cn(-c2c3ccccc3nc3ccccc23)nn1  growth percentage (NCI60 single-dose screen; 10 µM): 88.3%
CCCCN1CCN(c2ccc3nc(-c4ccc5nc(-c6cc(OC)ccc6OC)[nH]c5c4)[nH]c3c2)CC1  growth percent (SRB; 10 µM, 48 h): 106%
Cc1cc(-c2ccccc2)n(-c2nc(-c3ccc(Cl)cc3)c3c(NC(=O)c4ccccc4)nnc-3[nH]2)n1  cell growth (SRB; 10 µM, NCI60 single-dose screen; relative to: untreated): 88.7%
CCCCN1CCN(c2ccc3[nH]c(-c4ccc5[nH]c(-c6ccc(OCC)c(OCC)c6)nc5c4)nc3c2)CC1  growth percent (SRB; 10 µM, 48 h): -32.2%
Cn1cncc1C1=CN(c2ncnc3[nH]cnc23)CCS1  GI50 (lung cancer): 15100 nM
O=C(/C=C/C=C/C=C/C1CCCCC1)NC1=C[C@@](O)(/C=C/C=C/C=C/C(=O)NC2=C(O)CCC2=O)[C@@H]2O[C@@H]2C1=O  GI50 (cell growth, CellTiter-Glo; 78 h): 16700 nM
CCOc1ccc(-c2nc3cc(-c4nc5cc(N6CCN(C)CC6)ccc5[nH]4)ccc3[nH]2)cc1OCC  growth percent (SRB; 10 µM, 48 h): -18.2%
S=C([S][Au-][P+](CCCCCC[P+]([Au-][S]C(=S)n1cccn1)(c1ccccc1)c1ccccc1)(c1ccccc1)c1ccccc1)n1cccn1  log10 TGI (cell growth, NCI-60 screen; non-small cell lung cancer): -5.2
O=C(Nc1nnc2n3c(Cc4ccccc4)n[nH]c3nc(-c3ccc(Cl)cc3)c1-2)c1ccccc1  cell growth (SRB; 10 µM, NCI60 single-dose screen; relative to: untreated): 106%
CCCN1CCN(c2ccc3[nH]c(-c4ccc5[nH]c(-c6ccc(OCC)c(OCC)c6)nc5c4)nc3c2)CC1  growth percent (SRB; 10 µM, 48 h): -44.8%
Cc1cc(=O)[nH]c(=O)n1Cc1cn(-c2c3ccccc3nc3ccccc23)nn1  growth percentage (NCI60 single-dose screen; 10 µM): -74.3%
O=C(Nc1nnc2n3c(=S)[nH][nH]c3nc(-c3ccc(Cl)cc3)c1-2)c1ccccc1  cell growth (SRB; 10 µM, NCI60 single-dose screen; relative to: untreated): 94.7%

A few entries again:
CCCCN1CCN(c2ccc3[nH]c(-c4ccc5[nH]c(-c6cc(OC)c(OC)c(OC)c6)nc5c4)nc3c2)CC1  growth percent (SRB; 10 µM, 48 h): 52.8%
Cn1cncc1C1=CN(c2ncnc3[nH]cnc23)CCS1  GI50 (lung cancer): 15100 nM
CCCC(CCC)C(=O)OCc1cn(-c2c3ccccc3nc3ccccc23)nn1  growth percentage (NCI60 single-dose screen; 10 µM): 88.3%
